Experimental data from different studies.
Compare with care: the assays were run in different laboratories. Values joined by “and” are separate records of one study, mostly repeats; a detail may differ. ± gives the spread as reported.
Sequence of UniProt Q14289 (whole entry, looked up): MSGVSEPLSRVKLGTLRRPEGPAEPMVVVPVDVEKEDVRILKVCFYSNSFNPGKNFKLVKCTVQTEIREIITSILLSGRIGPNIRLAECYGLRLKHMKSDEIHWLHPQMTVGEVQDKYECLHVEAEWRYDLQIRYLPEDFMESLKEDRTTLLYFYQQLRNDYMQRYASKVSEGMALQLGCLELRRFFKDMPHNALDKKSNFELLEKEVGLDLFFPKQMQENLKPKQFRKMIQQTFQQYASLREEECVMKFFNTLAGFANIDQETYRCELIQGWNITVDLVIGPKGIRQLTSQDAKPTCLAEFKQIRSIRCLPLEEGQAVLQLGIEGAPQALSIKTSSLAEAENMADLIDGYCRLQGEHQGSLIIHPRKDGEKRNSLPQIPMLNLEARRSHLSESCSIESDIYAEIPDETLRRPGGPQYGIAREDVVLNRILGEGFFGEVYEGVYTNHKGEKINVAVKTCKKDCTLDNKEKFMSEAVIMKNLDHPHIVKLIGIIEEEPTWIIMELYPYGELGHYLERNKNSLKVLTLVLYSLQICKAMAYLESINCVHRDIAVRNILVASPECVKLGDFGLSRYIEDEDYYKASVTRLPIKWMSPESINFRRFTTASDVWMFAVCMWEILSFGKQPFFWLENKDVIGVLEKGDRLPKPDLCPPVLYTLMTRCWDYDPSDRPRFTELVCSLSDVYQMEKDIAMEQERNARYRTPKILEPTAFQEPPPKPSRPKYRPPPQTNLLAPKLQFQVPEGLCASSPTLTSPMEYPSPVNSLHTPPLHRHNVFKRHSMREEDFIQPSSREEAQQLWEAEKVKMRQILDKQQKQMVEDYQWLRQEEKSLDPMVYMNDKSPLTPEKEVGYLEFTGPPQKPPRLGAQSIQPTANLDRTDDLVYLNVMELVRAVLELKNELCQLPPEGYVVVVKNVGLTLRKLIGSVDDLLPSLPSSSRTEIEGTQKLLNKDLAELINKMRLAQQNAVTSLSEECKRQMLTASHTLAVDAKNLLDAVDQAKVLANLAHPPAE
Sequence of UniProt Q5S007 (whole entry, looked up): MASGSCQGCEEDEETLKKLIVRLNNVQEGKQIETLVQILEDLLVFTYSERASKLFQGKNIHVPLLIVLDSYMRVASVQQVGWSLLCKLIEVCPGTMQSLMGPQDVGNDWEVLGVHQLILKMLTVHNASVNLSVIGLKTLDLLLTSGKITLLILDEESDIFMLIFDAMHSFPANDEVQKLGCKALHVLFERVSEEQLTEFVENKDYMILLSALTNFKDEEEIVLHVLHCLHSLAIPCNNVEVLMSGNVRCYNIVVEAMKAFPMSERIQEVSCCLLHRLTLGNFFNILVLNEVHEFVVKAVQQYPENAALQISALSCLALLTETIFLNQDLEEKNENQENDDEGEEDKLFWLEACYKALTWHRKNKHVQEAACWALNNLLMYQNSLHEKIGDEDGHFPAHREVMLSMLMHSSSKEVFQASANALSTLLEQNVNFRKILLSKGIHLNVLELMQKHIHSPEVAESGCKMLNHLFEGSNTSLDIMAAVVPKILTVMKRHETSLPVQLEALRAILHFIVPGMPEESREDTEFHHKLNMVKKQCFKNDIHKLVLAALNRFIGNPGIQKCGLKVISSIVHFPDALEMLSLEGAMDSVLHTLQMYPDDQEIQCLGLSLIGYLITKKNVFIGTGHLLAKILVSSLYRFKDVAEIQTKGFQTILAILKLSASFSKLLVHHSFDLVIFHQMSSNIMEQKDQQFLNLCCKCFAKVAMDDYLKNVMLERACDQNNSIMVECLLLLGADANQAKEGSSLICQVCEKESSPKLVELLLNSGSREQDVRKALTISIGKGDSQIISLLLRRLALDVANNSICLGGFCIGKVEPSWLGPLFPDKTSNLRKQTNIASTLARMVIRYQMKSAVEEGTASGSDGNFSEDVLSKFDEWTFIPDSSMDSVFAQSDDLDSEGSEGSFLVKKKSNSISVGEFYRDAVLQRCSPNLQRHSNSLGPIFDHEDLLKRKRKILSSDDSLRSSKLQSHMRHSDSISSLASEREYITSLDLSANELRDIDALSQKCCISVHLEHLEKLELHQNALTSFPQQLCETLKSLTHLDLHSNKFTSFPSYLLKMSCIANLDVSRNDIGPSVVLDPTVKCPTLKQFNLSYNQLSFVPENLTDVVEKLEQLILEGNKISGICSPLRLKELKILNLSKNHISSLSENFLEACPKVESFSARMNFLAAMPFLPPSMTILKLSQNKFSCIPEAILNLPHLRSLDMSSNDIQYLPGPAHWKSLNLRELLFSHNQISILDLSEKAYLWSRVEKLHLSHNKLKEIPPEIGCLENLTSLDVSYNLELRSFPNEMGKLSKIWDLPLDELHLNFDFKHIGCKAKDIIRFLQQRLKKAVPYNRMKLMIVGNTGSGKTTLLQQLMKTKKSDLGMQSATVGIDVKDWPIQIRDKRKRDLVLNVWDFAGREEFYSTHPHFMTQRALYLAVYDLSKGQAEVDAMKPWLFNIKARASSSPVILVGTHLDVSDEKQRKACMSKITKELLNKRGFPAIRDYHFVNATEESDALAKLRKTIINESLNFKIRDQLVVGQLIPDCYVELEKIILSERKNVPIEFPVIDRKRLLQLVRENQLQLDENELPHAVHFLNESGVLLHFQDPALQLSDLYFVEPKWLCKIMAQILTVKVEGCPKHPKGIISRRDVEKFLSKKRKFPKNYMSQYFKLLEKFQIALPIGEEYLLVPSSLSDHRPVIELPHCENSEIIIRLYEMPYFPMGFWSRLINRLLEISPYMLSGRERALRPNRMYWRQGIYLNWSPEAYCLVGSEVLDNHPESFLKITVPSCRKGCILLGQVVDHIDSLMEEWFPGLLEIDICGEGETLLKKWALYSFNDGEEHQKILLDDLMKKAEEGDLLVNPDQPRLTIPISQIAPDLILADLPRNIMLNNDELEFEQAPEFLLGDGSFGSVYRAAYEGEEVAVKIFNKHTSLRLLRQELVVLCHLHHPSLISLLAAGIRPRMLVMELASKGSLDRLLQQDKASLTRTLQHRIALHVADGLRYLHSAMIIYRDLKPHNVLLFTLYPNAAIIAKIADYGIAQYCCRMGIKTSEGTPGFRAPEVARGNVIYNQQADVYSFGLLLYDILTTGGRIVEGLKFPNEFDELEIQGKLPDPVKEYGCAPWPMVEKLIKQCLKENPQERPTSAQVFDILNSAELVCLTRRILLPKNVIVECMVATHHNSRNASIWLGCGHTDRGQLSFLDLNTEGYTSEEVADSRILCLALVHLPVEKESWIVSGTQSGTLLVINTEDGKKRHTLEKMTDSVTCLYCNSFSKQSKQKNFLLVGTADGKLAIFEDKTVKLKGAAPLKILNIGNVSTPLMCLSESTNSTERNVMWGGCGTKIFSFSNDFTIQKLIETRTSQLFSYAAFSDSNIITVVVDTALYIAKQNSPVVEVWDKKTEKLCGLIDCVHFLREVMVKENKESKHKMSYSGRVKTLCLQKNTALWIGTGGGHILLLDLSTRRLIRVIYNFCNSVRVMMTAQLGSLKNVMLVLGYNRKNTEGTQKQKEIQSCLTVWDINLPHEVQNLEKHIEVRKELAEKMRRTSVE
Sequence of UniProt Q15375 (whole entry, looked up): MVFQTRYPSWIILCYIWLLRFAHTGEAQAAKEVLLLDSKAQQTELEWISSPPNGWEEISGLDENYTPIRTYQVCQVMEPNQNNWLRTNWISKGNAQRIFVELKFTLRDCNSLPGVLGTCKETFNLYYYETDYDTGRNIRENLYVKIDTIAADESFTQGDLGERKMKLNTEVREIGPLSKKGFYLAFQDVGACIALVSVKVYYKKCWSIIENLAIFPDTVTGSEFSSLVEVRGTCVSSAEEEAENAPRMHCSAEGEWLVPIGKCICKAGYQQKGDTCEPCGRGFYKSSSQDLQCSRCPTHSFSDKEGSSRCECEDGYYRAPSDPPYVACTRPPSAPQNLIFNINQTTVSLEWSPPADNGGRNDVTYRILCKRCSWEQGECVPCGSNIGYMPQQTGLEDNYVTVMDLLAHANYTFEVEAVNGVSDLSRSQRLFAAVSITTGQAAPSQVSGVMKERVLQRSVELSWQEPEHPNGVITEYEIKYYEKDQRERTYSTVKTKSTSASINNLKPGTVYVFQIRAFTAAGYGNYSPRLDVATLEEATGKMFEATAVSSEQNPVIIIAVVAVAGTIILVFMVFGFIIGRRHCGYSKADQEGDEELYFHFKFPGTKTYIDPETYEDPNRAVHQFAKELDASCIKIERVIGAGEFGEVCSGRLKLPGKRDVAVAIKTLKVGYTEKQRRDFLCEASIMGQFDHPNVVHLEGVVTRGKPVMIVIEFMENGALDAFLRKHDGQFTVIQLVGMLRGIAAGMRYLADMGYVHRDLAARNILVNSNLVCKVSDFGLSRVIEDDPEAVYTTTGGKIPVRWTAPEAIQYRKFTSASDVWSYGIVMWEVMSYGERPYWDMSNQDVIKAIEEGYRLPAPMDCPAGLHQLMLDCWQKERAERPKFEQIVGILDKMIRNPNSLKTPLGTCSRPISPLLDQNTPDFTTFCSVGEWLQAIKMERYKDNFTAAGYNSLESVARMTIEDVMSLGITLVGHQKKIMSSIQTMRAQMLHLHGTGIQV
Sequence of UniProt Q6J9G0 (whole entry, looked up): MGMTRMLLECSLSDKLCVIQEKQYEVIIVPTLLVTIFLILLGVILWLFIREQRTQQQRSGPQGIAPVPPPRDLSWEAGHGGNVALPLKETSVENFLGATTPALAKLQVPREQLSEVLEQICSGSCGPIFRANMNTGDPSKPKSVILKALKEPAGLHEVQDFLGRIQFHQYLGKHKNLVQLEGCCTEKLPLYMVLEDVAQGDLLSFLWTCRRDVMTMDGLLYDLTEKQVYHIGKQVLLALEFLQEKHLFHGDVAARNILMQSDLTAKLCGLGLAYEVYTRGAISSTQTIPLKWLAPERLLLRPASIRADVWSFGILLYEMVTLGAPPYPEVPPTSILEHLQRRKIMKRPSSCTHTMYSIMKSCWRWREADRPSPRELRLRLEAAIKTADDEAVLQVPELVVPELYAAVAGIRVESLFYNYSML

Compound | target | test | system | setting | how to read | remaining activity
Cc1cc(Nc2cc(N3CCN(C)CC3)nc(Sc3ccc(NC(=O)C4CC4)cc3)n2)[nH]n1 | PTK2B (Homo sapiens, UniProt Q14289) | kinase activity, KinaseProfiler |  | 0.03 µM, species human | baseline: control | 88%
O=C(NC1CCC1)c1ccc2nc(-c3cccc(NS(=O)(=O)NCCN4CCCCC4)c3)cn2c1 | PIK3CA (Homo sapiens, UniProt P42336, H1047Y) | enzyme activity |  | 10 µM |  | 100%
CNC(=O)c1ccc(NS(=O)(=O)c2cc(Cl)cc(Cl)c2O)c(Cl)c1 | malate dehydrogenase | enzyme activity, inhibitor |  | 200 µM, pH 7.0, 1% DMSO, aggregation counter-screen |  | 62%
COc1cc(F)ccc1-c1ncnc(Nc2cccc(C[S@](C)(=N)=O)c2)n1 | EPHA7 (Homo sapiens, UniProt Q15375) | kinase activity |  | 10 µM, together with: 10 µM ATP |  | 67%
C=CC(=O)N1CCC[C@@H](n2nc(-c3ccc(Oc4ccccc4)cc3)c3c(N)ncnc32)C1 | Tyrosine-protein kinase STYK1 (STYK1, Homo sapiens, UniProt Q6J9G0) |  |  | 0.1 µM |  | 239%
NC/C(=C\F)COc1cccc(Cn2c(=S)[nH]c(=O)c3[nH]cnc32)c1 | Lactoperoxidase (LPO, Bos taurus, UniProt P80025) | H2O2 electrode |  | 5 µM | baseline: control | 61.8% and 40.2% and 77.8%
COc1ccc2cc(CNC(=O)C3(C(=O)O)CCC3)ccc2c1 | malate dehydrogenase | enzyme activity, inhibitor |  | 200 µM, pH 7.0, 1% DMSO, aggregation counter-screen |  | 79%
C=CC[C@@H]1c2ccc(OC)c(OC)c2CN2CCc3cc4c(cc3[C@H]12)OCO4 | P2X purinoceptor 7 (P2rx7, Mus musculus, UniProt Q9Z1M0) | ATP-evoked current, inhibitor, whole-cell patch clamp | HEK293 transfected | 30 µM |  | 94.3%
CCCOc1ccc(OC)c(F)c1C(=O)c1ccc(C(=O)N[C@@H]2CNC[C@H]2NC(=O)c2ccc3[nH]ncc3c2)cc1 | MET (Homo sapiens, UniProt P08581, D1228H) | enzyme activity |  | 10 µM |  | 36%
CNc1ncc2c(/C=C/C(=O)N3CCC(OC)CC3)nn(Cc3cccc(C(F)(F)F)c3)c2n1 | LRRK2 (Homo sapiens, UniProt Q5S007) | kinase activity, inhibitor |  | 1 µM | baseline: untreated control | 58%
Cc1ccc(NS(=O)(=O)c2ccc(F)cc2O)cc1N1CCOC1=O | malate dehydrogenase | enzyme activity, inhibitor |  | 200 µM, pH 7.0, 1% DMSO, aggregation counter-screen |  | 99%
COc1cc(Nc2ncc3c(n2)-c2ccc(Cl)cc2C(c2c(F)cccc2OC)=NC3)ccc1C(=O)O | BTK | kinase activity |  | 1 µM |  | 51%
Cc1oc(C)c(S(=O)(=O)NCc2ccc(Br)c(F)c2F)c1C(=O)O | malate dehydrogenase | enzyme activity, inhibitor |  | 200 µM, pH 7.0, 1% DMSO, aggregation counter-screen |  | 91%
COc1cc(-c2cncc3c2CN(C)Cc2cc(N4CCNCC4)ccc2-3)cc(OC)c1OC | ULK2 (Homo sapiens, UniProt Q8IYT8) | kinase activity |  | 1 µM, human enzyme, together with: ATP 10 µM | baseline: DMSO control | 102%
Cc1cccc(C)c1C(=O)OCC(=O)[C@H](CCCCN)NC(=O)[C@H](CCCNC(=N)N)NC(=O)OCc1ccccc1 | Ctsc (Mus musculus, UniProt P97821) | inhibitor |  | 0.01 µM, room temperature, together with: AMC substrate |  | 89%
CC(Cc1c(F)cccc1F)NS(=O)(=O)c1ccoc1C(=O)O (stereo not shown) | malate dehydrogenase | enzyme activity, inhibitor |  | 200 µM, pH 7.0, 1% DMSO, aggregation counter-screen |  | 110%
COc1ccc(F)cc1C(=O)NCc1ccc(-c2nn([C@@H](C)C(F)(F)F)c(N)c2C(N)=O)cc1 | TNK2 (Homo sapiens, UniProt Q07912) |  |  | 1000 nM, together with: ATP at Km |  | 93.8 ± 3.4%
O=S(=O)(Nc1cc(-n2cccc2)ccc1F)c1cc(Cl)cc(Cl)c1O | malate dehydrogenase | enzyme activity, inhibitor |  | 40 µM, pH 7.0, 1% DMSO, aggregation counter-screen |  | 67%
O=C(O)c1ccc(Nc2ncc3c(n2)-c2ccc(Cl)cc2C(c2c(F)cccc2F)=NC3)cc1 | EphB2(h) | kinase activity |  | 1 µM |  | 69%

Repeated from above:
Compound | target | test | system | setting | how to read | remaining activity
CNC(=O)c1ccc(NS(=O)(=O)c2cc(Cl)cc(Cl)c2O)c(Cl)c1 | malate dehydrogenase | enzyme activity, inhibitor |  | 200 µM, pH 7.0, 1% DMSO, aggregation counter-screen |  | 62%
